Measured values pooled from the literature.
Numbered parts are unrelated; each lists some results of a single study. Substitutions count along the parent as printed.

Study 1 — method: RNA Bind-n-Seq; molecule type: RNA; matrix: in vitro; concentration: 1 µM; setting: whole 134-nt RNA, ends assumed; together with: 150 mM KCl; baseline: input library; direction: higher = stronger binding
Target: Ras GTPase-activating protein-binding protein 1, RRM domain (G3BP1, Homo sapiens, UniProt Q13283)
UniProt Q13283, sequence (whole entry, looked up): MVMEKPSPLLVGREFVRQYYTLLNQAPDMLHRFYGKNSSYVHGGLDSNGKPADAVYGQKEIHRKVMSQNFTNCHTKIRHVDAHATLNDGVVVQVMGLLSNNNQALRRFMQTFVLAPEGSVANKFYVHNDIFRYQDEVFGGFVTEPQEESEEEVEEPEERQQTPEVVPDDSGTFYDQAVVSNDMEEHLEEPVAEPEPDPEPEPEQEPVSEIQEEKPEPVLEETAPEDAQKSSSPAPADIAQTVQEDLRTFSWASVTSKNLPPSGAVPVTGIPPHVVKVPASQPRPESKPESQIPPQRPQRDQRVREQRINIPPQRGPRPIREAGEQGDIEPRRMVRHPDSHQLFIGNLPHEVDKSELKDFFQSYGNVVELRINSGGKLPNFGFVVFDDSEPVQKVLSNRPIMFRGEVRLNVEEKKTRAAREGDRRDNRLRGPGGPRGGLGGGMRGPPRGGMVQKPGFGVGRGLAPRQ
Shared flanks, not repeated: GGGAGUUCUACAGUCCGACGAUC … UGGAAUUCUCGGGUGUCAAGG
| Sequence | log2 enrichment |
| --- | --- |
| AGGCUAUGGAGGCUAUGAUGAUUACAAUGGCUAUAAUGAUGGCUAUGGAUUUGGGUCAGAUAGAUUUGGAAGAGGUAAGGUAAGAAUUGA | -0.163 |
| ACCAUGCAGGUGGACAUCUUUGGGAAGUGGGGCAAGGGGGGGAUAGGGAGGGGGGUAACACUUUGGGAACAGGUGGUCCCAGGUCGUUUC | -0.501 |
| GUCCUGUGCUACACAUCGUAUGUACCGAAUCGGGGAGGGGAAAGGGGUUUUUUUGGGGAAAGUAUUAUGUUACGCCGUUCGGAUCUGCAC | 1.19 |
| UGUUUUAAGGUUGCCAACUUUGCAACAAUGGAAGAUGAAGAAGAGCUAGAAGAGCGUCCUCACAAGGACUGGGAUGAGAUCAUUCCAGAG | -0.336 |
| GUCCUGUGCUACACAUCGUAUGUACCGAAUCGGGGAAAAAAAGGGGAGGGGAAAGGGGAAAGUAUUAUGUUACGCCGUUCGGAUCUGCAC | 0.997 |
| AAGUCCUGUGCUACACAUCGUAUGUACCGAAUCAAAUUUAAAUUUAAACCCCCAAAAAAGUAUUAUGUUACGCCGUUCGGAUCUGCACUU | -0.52 |
| ACCAUGCAGGUGGGCAUUUUUGGGAAGUGGGGCAAGGGGGGGAUAGGGAGGGGGGUAACACUUUGGGAACAGGUGGUCCCAGGUCGUUUC | -0.486 |
| UUCCUCAAGUCCUGUGCUACACAUCGUAUGUACCGAAUCGGAGGAGGAGGGAAAGUAUUAUGUUACGCCGUUCGGAUCUGCACUUCCAGC | -0.245 |
| CUGUGCUACACAUCGUAUGUACCGAAUCGGGGUUUUUUUGGUUUUUUUGGGGUUUUUUUGGAAAGUAUUAUGUUACGCCGUUCGGAUCUG | -0.129 |
| AGUCCUGUGCUACACAUCGUAUGUACCGAAUCGGGUUUUGGGGUUUUGGGUUUUGGGAAAGUAUUAUGUUACGCCGUUCGGAUCUGCACU | 0.526 |
| GUCCUGUGCUACACAUCGUAUGUACCGAAUCGGGCCCCCGGCCCCCGGGGCCCCCGGGGAAAGUAUUAUGUUACGCCGUUCGGAUCUGCA | -0.688 |
| UCCUCAAGUCCUGUGCUACACAUCGUAUGUACCGAAUCGGAGGAGGGGAGGGAAAGUAUUAUGUUACGCCGUUCGGAUCUGCACUUCCAG | -0.206 |
| GUCCUGUGCUACACAUCGUAUGUACCGAAUCAAACCCCCAAACCCCCCCAAAUUUAAAAAAGUAUUAUGUUACGCCGUUCGGAUCUGCAC | -0.0849 |
| GUCCUGUGCUACACAUCGUAUGUACCGAAUCGGCCCCCCGGGCCCCCCGGCCCCCCGGGAAAGUAUUAUGUUACGCCGUUCGGAUCUGCA | -0.391 |

Study 2 — target: CCNB1, cyclin fold, Cln2 fusion (human); method: yeast growth competition, sequencing; matrix: yeast; setting: weak parent motif; baseline: not given; direction: higher = stronger binding
Starting sequence: CDC6 docking peptide (human); TLKGRRLVFDNQL
| Change | normalised enrichment score |
| --- | --- |
| TLKGRRLVFDIQL [N11I] | -0.377 |
| TLKGRRLVFDNDL [Q12D] | 0.466 |
| TLKGRRLVFDNQA [L13A] | 0.678 |
| TLKGRRLVFDNTL [Q12T] | 0.481 |
| TLKGRREVFDNQL [L7E] | 0.543 |
| TLKGRRLVFDNQN [L13N] | 0.0703 |
| RLKGRRLVFDNQL [T1R] | 0.0377 |
| TLKGRRLQFDNQL [V8Q] | -0.49 |
| TLKGRNLVFDNQL [R6N] | 0.302 |
| TLKGRRLLFDNQL [V8L] | 0.941 |
| TLKGRRLVFDKQL [N11K] | -0.372 |
| TLYGRRLVFDNQL [K3Y] | 0.632 |
| ALKGRRLVFDNQL [T1A] | 0.404 |
| TLKGRRLVFDNQS [L13S] | 0.649 |

Study 3 — method: RNA Bind-n-Seq; molecule type: RNA; matrix: in vitro; concentration: 365 nM; baseline: no-protein control; direction: higher = stronger binding
Target: RNA binding protein fox-1 homolog 2, RRM domain, GST-SBP tag (RBFOX2, Homo sapiens, UniProt O43251-10, residues 100-194)
Setting: natural RNA segment, single round, ends assumed
Shared flanks, not repeated: GGGAGUUCUACAGUCCGACGAUC … UGGAAUUCUCGGGUGCCAA
Target sequence (chain): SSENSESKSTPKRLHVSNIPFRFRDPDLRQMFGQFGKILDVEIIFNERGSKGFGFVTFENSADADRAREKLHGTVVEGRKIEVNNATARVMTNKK
| Sequence | RBNS enrichment (R) |
| --- | --- |
| UAAUUUUCCUGUCUCUUUUUUUUGUAAAUUUUAUGUACAGAUUUGAUUUUUCAUAGUUUUAACUAGAUUUCCAAGAUAUUUUGUGCAUUUGUUUCAACUGAAUUUUGGUG | 0.649 |
| UCUUCAGUGUUUUGCUUGUUCACUGUCAUCAGAGCAGGGAUUAGACCUGUUAGGGAAUAUCUAUUGUCUUGAAGUCAGAGUAGCUCCCCAUUGUUGAGAUCAGUGGGCAU | 0.378 |
| AUAGCUAAAGCCUGAAGAUAUCUUCAGAAAACACAUCUGGGAUGUAUCCCAUGUUCCCAGAAAGCUGUGUACUAGUUAAAAACUCUUUUGUCAAGGGGUAGGGAUAGUGG | 0.309 |
| UCUUAUUAGGAUGAUUUUCUAUUAUUAGGUCAAAAAGCUCUACCCAGGCAACAGACACAAUCUGUGCUGAUUAAACUGUCAGCUGGAUACCAGACUUUUAGGGAGACUGG | 0.19 |
| UGAAGCAGGUCACCAUGCUUGCAAAUUAAGUUUCAGCAGCUCUACCUCCUGGCAGAAGGACUGAGUCCAAAUCGCAUGCAGUGCACGUUGAAGUUUUCAGAAGCAUGGGC | 5.96 |
| AGUAUUCAGAGUCUCUGAUACACAGUAAUUGUGACAAUAGGGCUAAAUGUUUAAAGAAAUCAAAAGAAUCUAUUAGAUUUUAGAAAAACAUUUAAACUUUUUAAAAUACU | 0.395 |
| UGCCUGCCUCCUUGUGUGGACAGAGUGGUGAAGACGUAUUCCUCACCUCCUUGCCUUUCAGUAAAUGGCCACGAUGUGACUAUUUGUUGAGGUUUCCAGCCUCUUCCAAG | 0.171 |
| UUGCUUCAGAAUAGAUCUUUAUCAUCAUGUCUGCCUUUCCAUACUAUUGUAUUUAUUUUAGAAACUGAGAUAUACAUAGCAUGAUUACUUUUACAGAAGAAACUAAAAGA | 0.779 |
| GGUUGUUUUGUACAUAUUGGAAUAUGUGUUAACUUAUGCCCCGCAUCCCAACUCACACGGAAGCACGGGUCUUGUCUCAGUCUCUUCGCUGCAUUUGGAAAGCAGUCUCC | 0.434 |
| AAGUCCCCAGAGGGCUGCCCACGAUAGAAGCUGCCAAGCAGGGAGAACCUGUGCCAACUGUGGAGUGGGGAGGUUGGGCCUGGACCCUCAACCCCUGCAACCUUCCCUAG | 0.295 |
| AACAGACUGUGACCAAGGUCCUGUUGAGAAUUUAACAAGGCAAAAUCUGUCCUGUCACAGAAGUUUCUGAAAGCACCACAACUAAUACAGAGGAACAGAUCAGACUCCCA | 0.465 |
| AUAGUGAUUAUUUGUGGAAUUGUUGCACAUGCUCCUCAAUUGAAGGGGUUUUUUCCCUACUCAAGCAUUCGGAGACACUUUCUGUAAAUGUUAACCUUUAUGUCAGCCAU | 0.348 |

Further values, each from its own experiment
| Molecule | target | assay | system | setting | how to read | endpoint | result |
| --- | --- | --- | --- | --- | --- | --- | --- |
| PhoQ, residues 284 288 289 292 302 303 AMDMFI | PhoP, residues 12 14 15 18 19 LHHSG (Escherichia coli, UniProt P23836) | Sort-seq, refers to: YFP reporter | E. coli | PhoQ-PhoP variant library, together with: 10 µM Mg2+ | baseline: high Mg2+ state, higher = stronger signaling | fold induction | 0.713 |

A few entries again (study 2):
| Change | normalised enrichment score |
| --- | --- |
| TLKGRRLQFDNQL [V8Q] | -0.49 |
| TLKGRNLVFDNQL [R6N] | 0.302 |
| TLKGRRLVFDNQA [L13A] | 0.678 |
